Assay results of several laboratories.
Parts stem from different laboratories: compare values within a part only. Substitutions count along the parent as printed.
Chain of UniProt P23975 (whole entry, looked up): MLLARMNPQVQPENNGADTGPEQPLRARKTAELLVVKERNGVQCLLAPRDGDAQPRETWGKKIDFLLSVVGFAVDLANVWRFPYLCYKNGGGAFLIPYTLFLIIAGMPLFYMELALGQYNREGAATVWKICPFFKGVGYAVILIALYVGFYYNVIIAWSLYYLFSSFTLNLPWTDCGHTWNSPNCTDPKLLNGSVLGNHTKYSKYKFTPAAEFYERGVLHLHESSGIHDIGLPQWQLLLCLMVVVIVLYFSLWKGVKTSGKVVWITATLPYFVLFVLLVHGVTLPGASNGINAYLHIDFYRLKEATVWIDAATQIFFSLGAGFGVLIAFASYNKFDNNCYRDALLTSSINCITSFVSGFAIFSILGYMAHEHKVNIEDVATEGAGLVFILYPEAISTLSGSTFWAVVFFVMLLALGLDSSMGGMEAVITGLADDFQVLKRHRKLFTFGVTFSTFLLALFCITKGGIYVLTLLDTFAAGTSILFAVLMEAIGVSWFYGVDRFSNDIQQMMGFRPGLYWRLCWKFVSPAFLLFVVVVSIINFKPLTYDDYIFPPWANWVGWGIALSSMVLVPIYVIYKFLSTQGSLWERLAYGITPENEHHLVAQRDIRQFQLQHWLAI

Block 1
Target: CCNB1, cyclin fold, Cln2 fusion (human)
Method: yeast growth competition, sequencing
Sample: yeast
Notes: strong parent motif
Reference: not given
Direction: higher = stronger binding
Parent: viral docking peptide; KGVKRKLFAEDSS; partner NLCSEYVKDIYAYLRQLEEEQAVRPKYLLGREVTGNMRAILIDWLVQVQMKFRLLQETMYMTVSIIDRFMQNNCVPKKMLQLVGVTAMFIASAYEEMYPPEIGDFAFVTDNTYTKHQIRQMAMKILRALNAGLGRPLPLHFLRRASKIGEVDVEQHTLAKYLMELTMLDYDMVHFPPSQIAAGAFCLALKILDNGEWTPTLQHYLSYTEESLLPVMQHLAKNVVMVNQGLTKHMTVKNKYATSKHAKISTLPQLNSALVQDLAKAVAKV
Substitution	normalised enrichment score
S12I	2.62
F8M	0.138
K4A	3.19
F8Q	0.595
R5A	0.536
K6S	1.2
R5G	-0.045
V3I	1.62

Block 2
Target: tungstate, free oxyanion
Method: microfluidic competitive inhibition
Sample: in vitro, cell-free expressed
Concentration: not given
Notes: derived from inhibition constants, unchanged parent 2230 nM
Direction: lower = stronger binding
Parent: PafA, mature enzyme, eGFP fusion (Elizabethkingia meningoseptica, UniProt Q9KJX5); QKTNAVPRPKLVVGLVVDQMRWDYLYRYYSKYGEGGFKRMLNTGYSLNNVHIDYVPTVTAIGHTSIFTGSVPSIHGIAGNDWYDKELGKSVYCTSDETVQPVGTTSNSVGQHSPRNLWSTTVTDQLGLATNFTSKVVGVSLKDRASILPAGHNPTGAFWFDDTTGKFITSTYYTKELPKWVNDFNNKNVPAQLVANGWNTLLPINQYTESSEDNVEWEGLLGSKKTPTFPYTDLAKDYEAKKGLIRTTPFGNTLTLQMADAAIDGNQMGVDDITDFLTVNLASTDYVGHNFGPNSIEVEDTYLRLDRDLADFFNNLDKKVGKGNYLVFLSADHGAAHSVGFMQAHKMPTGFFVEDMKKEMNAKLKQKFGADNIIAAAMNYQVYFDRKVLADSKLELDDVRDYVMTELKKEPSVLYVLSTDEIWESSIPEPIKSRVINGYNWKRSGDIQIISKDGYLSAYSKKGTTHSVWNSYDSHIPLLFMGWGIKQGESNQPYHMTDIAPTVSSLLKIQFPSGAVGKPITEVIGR
Substitution	oxyanion analog dissociation constant [µM]
K319V	2.23
E429V	1.86
K393V	2.17
A191G	1.8
H333V	3.61
K322G	2.2
Y383G	1.72
K462G	2.05

Mixed results
Structure (SMILES)	tested on	assay	conditions	quantity	value
CC(C)OC(=O)[C@H](C)N[P@](=O)(CO[C@H](C)Cn1cnc2c(N)ncnc21)Oc1ccccc1	Vesicular stomatitis virus	pseudovirus infection	concentration not given, VSV-G control pseudotype	GFP signal	144%
COc1cc(-c2cn(C3CCc4c(F)cccc4N(CC(F)(F)F)C3=O)nn2)ccc1-n1cnc(C)c1 (stereo not drawn)	SLC6A2 (Homo sapiens, UniProt P23975)	ligand displacement	10 µM	inhibition	87.1%

Excerpt of the above (block 2):
Substitution	oxyanion analog dissociation constant [µM]
K322G	2.2
